Published values from different studies.
Each numbered part is a random draw from the data of one study; scales do not carry over between parts.
Sequence of UniProt P10721 (whole entry, unmodified, looked up): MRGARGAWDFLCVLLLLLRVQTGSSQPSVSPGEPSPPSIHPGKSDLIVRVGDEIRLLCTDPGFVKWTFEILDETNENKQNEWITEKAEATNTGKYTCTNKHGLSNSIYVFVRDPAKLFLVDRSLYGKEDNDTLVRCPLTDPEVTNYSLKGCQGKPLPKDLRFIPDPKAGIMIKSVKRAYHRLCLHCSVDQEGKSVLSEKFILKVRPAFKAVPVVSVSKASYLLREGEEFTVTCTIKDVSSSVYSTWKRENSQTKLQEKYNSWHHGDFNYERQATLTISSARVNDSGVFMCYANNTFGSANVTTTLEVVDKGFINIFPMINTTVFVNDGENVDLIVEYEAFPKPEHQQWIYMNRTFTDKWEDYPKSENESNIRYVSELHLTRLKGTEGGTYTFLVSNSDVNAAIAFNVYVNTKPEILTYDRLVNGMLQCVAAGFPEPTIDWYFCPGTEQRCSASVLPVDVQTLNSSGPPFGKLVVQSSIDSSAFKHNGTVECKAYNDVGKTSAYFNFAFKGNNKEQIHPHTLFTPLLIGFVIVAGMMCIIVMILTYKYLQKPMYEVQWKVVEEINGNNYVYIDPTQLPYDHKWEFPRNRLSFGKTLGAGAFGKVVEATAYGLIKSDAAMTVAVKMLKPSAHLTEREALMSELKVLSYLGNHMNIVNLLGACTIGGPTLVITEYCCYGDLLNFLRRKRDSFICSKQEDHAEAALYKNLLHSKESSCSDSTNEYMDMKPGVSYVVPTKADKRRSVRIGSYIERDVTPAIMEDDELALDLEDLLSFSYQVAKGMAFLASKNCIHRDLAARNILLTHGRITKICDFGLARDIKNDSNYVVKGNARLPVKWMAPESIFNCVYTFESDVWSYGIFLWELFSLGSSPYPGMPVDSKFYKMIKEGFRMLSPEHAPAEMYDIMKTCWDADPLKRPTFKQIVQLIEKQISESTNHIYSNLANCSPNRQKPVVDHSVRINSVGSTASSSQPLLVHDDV
Sequence of UniProt P48729 (whole entry, looked up): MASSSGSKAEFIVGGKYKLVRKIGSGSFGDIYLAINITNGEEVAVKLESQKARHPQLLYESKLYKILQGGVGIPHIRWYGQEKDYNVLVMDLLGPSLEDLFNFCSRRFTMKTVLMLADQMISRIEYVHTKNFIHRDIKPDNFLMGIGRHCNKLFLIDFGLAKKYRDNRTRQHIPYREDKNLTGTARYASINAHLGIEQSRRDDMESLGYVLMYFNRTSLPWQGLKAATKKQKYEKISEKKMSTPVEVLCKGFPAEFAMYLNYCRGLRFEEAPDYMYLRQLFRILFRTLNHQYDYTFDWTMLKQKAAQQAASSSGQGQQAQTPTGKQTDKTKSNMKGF
Sequence of UniProt Q13546 (whole entry, looked up): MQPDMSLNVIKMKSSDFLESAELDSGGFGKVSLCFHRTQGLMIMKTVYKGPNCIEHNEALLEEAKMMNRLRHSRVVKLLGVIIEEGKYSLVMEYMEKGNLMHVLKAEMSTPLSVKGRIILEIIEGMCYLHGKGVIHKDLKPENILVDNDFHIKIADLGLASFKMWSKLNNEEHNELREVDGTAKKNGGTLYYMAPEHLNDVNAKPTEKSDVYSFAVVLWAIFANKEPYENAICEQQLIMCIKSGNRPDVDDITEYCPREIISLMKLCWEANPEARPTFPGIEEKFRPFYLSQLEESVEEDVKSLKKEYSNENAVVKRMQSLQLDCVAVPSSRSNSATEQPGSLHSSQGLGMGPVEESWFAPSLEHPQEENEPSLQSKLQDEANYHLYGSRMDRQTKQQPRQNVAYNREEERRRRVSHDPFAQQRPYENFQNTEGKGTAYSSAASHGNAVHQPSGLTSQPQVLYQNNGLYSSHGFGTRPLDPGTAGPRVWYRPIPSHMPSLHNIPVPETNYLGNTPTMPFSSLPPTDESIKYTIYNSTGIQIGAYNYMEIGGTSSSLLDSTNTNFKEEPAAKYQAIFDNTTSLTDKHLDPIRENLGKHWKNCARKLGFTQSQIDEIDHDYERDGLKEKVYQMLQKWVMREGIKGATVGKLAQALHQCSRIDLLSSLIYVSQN
Sequence of UniProt Q9UKE5 (whole entry, looked up): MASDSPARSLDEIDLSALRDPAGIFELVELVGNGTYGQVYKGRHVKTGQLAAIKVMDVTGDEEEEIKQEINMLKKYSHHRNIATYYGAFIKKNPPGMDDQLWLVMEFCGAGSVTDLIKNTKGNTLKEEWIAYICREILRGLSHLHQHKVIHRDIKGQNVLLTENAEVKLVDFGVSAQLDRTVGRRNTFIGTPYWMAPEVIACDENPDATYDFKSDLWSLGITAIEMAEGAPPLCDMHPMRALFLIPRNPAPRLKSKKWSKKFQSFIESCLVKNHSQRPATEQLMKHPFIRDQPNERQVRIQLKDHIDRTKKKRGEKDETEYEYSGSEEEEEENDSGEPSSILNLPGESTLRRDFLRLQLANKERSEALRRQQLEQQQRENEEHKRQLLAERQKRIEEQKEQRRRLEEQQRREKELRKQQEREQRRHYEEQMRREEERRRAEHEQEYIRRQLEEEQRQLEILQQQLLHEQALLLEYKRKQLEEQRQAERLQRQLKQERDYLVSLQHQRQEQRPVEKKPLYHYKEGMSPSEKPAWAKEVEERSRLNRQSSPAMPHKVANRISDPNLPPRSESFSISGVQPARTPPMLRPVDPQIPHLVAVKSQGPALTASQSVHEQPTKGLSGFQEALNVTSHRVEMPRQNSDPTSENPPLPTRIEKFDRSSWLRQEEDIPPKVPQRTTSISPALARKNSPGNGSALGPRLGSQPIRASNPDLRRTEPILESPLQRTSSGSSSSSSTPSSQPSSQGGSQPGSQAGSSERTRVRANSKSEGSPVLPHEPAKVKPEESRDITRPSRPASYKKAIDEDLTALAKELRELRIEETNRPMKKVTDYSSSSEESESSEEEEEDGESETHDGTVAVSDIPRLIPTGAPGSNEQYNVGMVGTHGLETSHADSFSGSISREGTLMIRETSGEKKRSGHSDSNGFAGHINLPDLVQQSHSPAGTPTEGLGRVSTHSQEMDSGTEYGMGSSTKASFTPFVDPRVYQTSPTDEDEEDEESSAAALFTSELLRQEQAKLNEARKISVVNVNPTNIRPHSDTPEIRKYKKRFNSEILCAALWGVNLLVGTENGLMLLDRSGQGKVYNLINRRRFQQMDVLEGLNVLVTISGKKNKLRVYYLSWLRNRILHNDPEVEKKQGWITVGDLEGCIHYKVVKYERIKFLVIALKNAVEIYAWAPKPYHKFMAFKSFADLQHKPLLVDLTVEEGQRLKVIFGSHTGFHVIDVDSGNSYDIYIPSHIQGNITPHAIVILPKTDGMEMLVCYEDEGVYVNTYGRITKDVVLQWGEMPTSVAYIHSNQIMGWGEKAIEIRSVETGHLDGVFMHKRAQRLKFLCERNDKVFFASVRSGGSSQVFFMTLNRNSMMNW
Sequence of UniProt Q05655 (whole entry, looked up): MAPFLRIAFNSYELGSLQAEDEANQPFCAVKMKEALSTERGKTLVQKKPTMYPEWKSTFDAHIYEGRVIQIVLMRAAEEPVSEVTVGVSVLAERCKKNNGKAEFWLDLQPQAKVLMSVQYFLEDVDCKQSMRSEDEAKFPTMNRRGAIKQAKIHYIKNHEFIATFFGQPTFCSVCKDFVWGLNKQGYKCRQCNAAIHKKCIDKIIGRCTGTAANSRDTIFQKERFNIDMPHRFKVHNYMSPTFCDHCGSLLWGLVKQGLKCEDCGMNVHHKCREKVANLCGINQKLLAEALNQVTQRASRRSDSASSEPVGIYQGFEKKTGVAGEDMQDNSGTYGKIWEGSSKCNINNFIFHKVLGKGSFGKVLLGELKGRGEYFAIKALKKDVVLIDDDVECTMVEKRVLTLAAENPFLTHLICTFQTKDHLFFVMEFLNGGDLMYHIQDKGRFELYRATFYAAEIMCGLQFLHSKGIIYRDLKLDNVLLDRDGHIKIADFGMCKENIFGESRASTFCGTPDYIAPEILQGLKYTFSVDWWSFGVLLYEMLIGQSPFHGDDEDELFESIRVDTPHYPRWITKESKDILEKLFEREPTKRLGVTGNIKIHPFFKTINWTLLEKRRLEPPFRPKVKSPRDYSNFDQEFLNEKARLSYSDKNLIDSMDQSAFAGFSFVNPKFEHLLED

Block 1
Target: Phosphate system positive regulatory protein PHO4, full length, GST-tagged (PHO4, Saccharomyces cerevisiae, UniProt P07270, residues 1-312)
Technique: competition protein-binding microarray
Form: double-stranded DNA, one strand shown
Matrix: in vitro
Concentration: 2 µM
Setting: whole 60-bp probe, lowest competitor level
Added: Cbf1 competitor, 0.05 µM
Reading: higher = stronger binding
All sequences stand within: … GTCTTGATTCGCTTGACGCTGCTG
Residues (chain): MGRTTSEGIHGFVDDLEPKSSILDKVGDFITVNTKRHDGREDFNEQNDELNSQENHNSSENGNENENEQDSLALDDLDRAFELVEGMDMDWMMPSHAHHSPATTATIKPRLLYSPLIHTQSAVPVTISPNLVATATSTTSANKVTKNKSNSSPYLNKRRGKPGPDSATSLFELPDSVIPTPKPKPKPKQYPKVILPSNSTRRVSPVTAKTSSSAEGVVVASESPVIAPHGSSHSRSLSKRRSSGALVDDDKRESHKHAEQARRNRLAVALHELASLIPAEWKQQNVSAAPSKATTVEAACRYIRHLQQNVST
Sequence | fluorescence intensity
CTGATGCCCATGGAGACTGTGACGCTAAGAGGAATT | 3760 a.u.
CTAACGAAGGTTTTTCACGTGGTTTACAAGCCAAGT | 12700 a.u.
TGCGCAACAACTTTTCACGTGTCCTTATGTCTAGAA | 14800 a.u.
TTGAACGGTGGTACCCACGCTGGTGGTGCTTTGGCT | 7820 a.u.
TCTTAAAACGAGGTTCACGTGTAACCTTGGTTGATG | 15200 a.u.
ATTGTATGAAGATAACGCGTGGTGAATTGGAAATAG | 11800 a.u.
GCTTTCAGGCACTAAGACGTGCAAAGATATAAGCCA | 5120 a.u.
CTTCTGTAAATTTGAACCGTGGGTGGACGCGCCCCG | 7110 a.u.

Block 2
Target: Mitogen-activated protein kinase kinase kinase 3 (MAP3K3, Homo sapiens, UniProt Q99759)
Sequence of UniProt Q99759 (whole entry, looked up): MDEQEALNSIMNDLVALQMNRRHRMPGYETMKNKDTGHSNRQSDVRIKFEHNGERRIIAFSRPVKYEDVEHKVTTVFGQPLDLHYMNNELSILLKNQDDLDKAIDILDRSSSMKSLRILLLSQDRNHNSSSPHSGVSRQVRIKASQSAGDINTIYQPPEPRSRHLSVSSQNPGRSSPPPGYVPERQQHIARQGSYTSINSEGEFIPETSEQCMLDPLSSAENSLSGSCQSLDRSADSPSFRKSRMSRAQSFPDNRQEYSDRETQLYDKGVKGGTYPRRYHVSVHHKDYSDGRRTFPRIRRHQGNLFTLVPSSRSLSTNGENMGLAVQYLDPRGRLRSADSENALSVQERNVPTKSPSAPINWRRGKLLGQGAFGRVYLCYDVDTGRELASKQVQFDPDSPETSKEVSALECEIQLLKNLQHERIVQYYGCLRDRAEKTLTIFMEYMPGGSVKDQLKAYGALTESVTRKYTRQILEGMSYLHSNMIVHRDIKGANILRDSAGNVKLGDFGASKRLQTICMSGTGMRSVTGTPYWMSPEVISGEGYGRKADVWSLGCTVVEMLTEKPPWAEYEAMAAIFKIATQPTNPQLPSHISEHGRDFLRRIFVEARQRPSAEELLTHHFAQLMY
Effect on: enzyme activity
Action: inhibitor
Concentration: 0.5 µM
Relative to: control
Structure (SMILES) | remaining activity
COc1cc2ncnc(Nc3ccc(F)c(Cl)c3)c2cc1OCCCN1CCOCC1 | 107%
O=C1NC(=O)C(c2cn(CCCn3ccnc3)c3ccccc23)=C1Nc1ccccc1 | 95.8%
N#CC(C#N)=C(N)/C(C#N)=C/c1ccc(O)cc1 | 78.6%
CN(C)c1ccc(C=C2C(=O)Nc3ccccc32)cc1 | 104%
Nc1ncnc2n[nH]c(Nc3ccc(F)cc3)c12 | 87.6%
O=c1c2ccccc2[nH]c(=S)n1CCN1CCC(=C(c2ccc(F)cc2)c2ccc(F)cc2)CC1 | 102%
CO[C@H]1C[C@@H]2CC[C@@H](C)[C@@](O)(O2)C(=O)C(=O)N2CCCC[C@H]2C(=O)O[C@H]([C@H](C)C[C@@H]2CC[C@@H](O)[C@H](OC)C2)CC(=O)[C@H](C)/C=C(\C)[C@@H](O)[C@@H](OC)C(=O)[C@H](C)C[C@H](C)/C=C/C=C/C=C/1C | 101%
COc1ccc(CNC(=O)Nc2ncc([N+](=O)[O-])s2)cc1 | 87.6%
CNC(=O)c1cc(Oc2ccc(NC(=O)Nc3ccc(Cl)c(C(F)(F)F)c3)cc2)ccn1 | 107%
COc1ccc(C(=O)Nc2sc3c(c2C(N)=O)CCCC3)cc1OC | 100%
COc1cc2nccc(Oc3ccc(NC(=S)NC(=O)c4ccccc4C)cc3)c2cc1OC | 105%
Cc1cccc(-c2[nH]c(C(C)(C)C)nc2-c2ccc3c(c2)OCO3)n1 | 120%
C#Cc1cccc(Nc2ncnc3cc(OCCOC)c(OCCOC)cc23)c1 | 117%
Nc1[nH]nc2nc3ccccc3nc12 | 103%
O=C(O)c1ccc2c3c1cccc3c(=O)n1c3ccccc3nc21 | 81%

Block 3
SMILES: NS(=O)(=O)c1cc(NC(=O)Cc2ccccc2)ccc1Oc1cccc(Cl)c1
Effect on: cell-free assay
Technique: competition with immobilised ligand
Concentration: 1 µM
target | remaining binding [%]
RAF1 (Homo sapiens, UniProt P04049) | 100
TNIK (Homo sapiens, UniProt Q9UKE5) | 93
CIT (Homo sapiens, UniProt O14578) | 100
BMX (Homo sapiens, UniProt P51813) | 94
CSNK1A1 (Homo sapiens, UniProt P48729) | 93
KIT (Homo sapiens, UniProt P10721, T670I/V559D) | 83
CDKL5 (Homo sapiens, UniProt O76039) | 83
KIT (Homo sapiens, UniProt P10721, D816V) | 77
PRKCD (Homo sapiens, UniProt Q05655) | 100
PIKFYVE (Homo sapiens, UniProt Q9Y2I7) | 95
RIPK1 (Homo sapiens, UniProt Q13546) | 81
EGFR (Homo sapiens, UniProt P00533, del752-759) | 76
PIK3C2B (Homo sapiens, UniProt O00750) | 91
TAOK1 (Homo sapiens, UniProt Q7L7X3) | 93

Further values, each from its own experiment
Molecule | target | assay | system | setting | scale | endpoint | value
PhoQ, residues 284 288 289 292 302 303 GTAMQF | PhoP, residues 12 14 15 18 19 IFFTR (Escherichia coli, UniProt P23836) | Sort-seq, measured: YFP reporter | E. coli | PhoQ-PhoP variant library, added: 10 µM Mg2+ | relative to: high Mg2+ state, higher = stronger signaling | fold induction | 24.2

Some of these lines once more (block 3):
target | remaining binding [%]
CDKL5 (Homo sapiens, UniProt O76039) | 83
BMX (Homo sapiens, UniProt P51813) | 94
TNIK (Homo sapiens, UniProt Q9UKE5) | 93
